Experimental data pooled from the literature.
Parts stem from different laboratories: compare values within a part only. Positions count from the first letter of the parent shown.

Sample 1 — method: protein-binding microarray; molecule type: double-stranded DNA, one strand shown; sample: in vitro; tested at: 2200 nM top; notes: 60-bp whole probe; with: salmon DNA 0.4 mg/ml; reference: random background probes; direction: higher = stronger binding; endpoint: fitted relative affinity; all sequences stand within: GCCTAGCAC … GTCTTGATTCGCTTGACGCTGCTG
Target: Interferon regulatory factor 7, full length, phosphomimetic (IRF7, Homo sapiens, UniProt Q92985, residues 1-503, S471D/S472D/S475D/S476D/S477D/S483D/S484D/S487D)
Target sequence (chain): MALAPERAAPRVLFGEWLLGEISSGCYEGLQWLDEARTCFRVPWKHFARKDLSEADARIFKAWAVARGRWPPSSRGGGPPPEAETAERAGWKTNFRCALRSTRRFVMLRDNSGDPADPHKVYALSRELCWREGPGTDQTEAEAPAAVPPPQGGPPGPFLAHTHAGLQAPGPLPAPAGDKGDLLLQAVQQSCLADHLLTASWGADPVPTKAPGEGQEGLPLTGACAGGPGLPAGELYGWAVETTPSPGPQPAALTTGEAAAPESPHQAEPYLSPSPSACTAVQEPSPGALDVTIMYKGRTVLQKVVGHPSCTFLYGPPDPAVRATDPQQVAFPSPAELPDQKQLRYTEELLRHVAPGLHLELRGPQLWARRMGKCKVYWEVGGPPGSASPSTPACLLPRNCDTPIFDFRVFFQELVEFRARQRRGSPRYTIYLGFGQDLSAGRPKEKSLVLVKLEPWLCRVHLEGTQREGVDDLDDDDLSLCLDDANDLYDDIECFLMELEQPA
TTAGGACAGGGTTTCGGTTAGTGCTAG: 3.2 z-score
TTAGATATCGGGTTTCGATTGGTGCTA: 4.51 z-score
CTGGGGGCAGTTTCATGGCCGTGCTAG: -0.519 z-score
TTAGATATCAGACTAGATTAGTGCTAG: -0.553 z-score
TCACTTCTATAGGCTAGAACTGTGCTA: 0.779 z-score
TTAGGTTTCGACACTCGGTTAGTGCTA: 3.44 z-score
TTAGGTAGCGGTTTCGGTTAGTGCTAG: 5.15 z-score
TTAGGTCTGGGGTATCGGTTAGTGCTA: -0.173 z-score

Sample 2 — method: RNAcompete; molecule type: RNA; sample: in vitro; tested at: 20 nM; notes: 7-mer, probes averaged, single round; reference: mean of 7-mers; direction: higher = stronger binding; endpoint: 7-mer Z-score
Target: PABPC1L2, full length, GST fusion (mouse, UniProt A0ABA7IW68)
Target sequence (chain): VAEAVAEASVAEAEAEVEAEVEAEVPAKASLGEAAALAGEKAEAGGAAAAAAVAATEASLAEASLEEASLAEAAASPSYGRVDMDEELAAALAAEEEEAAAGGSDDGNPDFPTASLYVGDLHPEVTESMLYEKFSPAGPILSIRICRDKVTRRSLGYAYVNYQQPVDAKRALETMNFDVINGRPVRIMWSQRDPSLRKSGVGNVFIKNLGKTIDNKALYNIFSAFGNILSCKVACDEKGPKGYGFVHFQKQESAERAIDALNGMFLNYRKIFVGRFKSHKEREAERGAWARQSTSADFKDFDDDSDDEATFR
AGCCUCC: -0.347
AUCAGAA: 0.242
AUUGCGA: -0.021
UAGCUUA: -0.168
CCGUUAA: -0.0536
AUCUGCG: -0.182
AACUCUG: 0.0442
CAUGUCU: -0.202

Sample 3 — method: RNA Bind-n-Seq; molecule type: RNA; sample: in vitro; tested at: not given; reference: input RNA pool; direction: higher = stronger binding; endpoint: bound/input enrichment
Target: RING finger protein unkempt homolog, zinc fingers 1-6, GST-SBP tag (UNK, Homo sapiens, UniProt Q9C0B0, residues 30-357)
UniProt Q9C0B0, sequence (30-357, looked up): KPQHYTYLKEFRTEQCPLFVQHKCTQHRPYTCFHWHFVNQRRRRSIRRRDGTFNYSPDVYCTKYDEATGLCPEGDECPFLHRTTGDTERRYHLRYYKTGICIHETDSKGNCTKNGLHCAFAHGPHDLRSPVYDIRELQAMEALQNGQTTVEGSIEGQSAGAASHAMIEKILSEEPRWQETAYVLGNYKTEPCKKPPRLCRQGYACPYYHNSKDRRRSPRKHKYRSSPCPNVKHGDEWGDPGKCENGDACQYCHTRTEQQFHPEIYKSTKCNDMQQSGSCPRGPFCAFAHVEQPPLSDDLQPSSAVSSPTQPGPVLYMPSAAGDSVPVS
Notes: RNA with constant flanks, human-mouse chimeric sites, ends assumed
All sequences stand within: GGGAGUUCUACAGUCCGACGAUC … CAACAGAGGAUUGAGCAUCA
CUGGCACUGUAUCAGAUAUAUUAAUUUUUAAAUGUAGAUGUAAUUUUAAAAAUGAAUGGCUACUUUACACGUUUAACUAGGGUUUUACUAUAUAUGUGUACAUAUGUAUAUAUAUAUAUA: 2.15 ratio
AUAAAGGCUAUGUUGAGUGGUCCAGGUCAGUUUGCUGAGAACGAAACCAAUGAGGUCAAUUUUAGAGAGAUCCCCUCACAUGUGCUAUCAAAAGUGUGCAUGUAUUUUACCUACAAGGUC: 0.105 ratio
CAGUCCCCGUGUCCCAGUGCAGGACGAGAACAUGGACAACUCAAAGCGGACCCUCUAUUGUAGUUCUUGAUUCUCGAAAUGUGCUAUUAUUGUUUGUAAAAAAGGAAUUUUUUUUAAAGA: 0.159 ratio
UUGCUACUAACUCCAUGGGUCAAGUUCCUGUGGGAAUCUUACAGGCAGUGUUUGGACCUUCUUCGAAACAAUUCUAGAGUAGAGCGCCUUUACCAUGAUAUCGCCCAACAAGCUUUCAAA: 0.194 ratio
UUCCCAACCUCCCGCCUGCUUUUUGAACCGCUUUUUGGAAAGUUUUUGGCGUUUCUUUUCCUUCCCCAUACAAAGUGAUUACAGUUUCCCCCGCAAGGGUCUAUCGAAGGGCUUGACGGA: 0.465 ratio
CCCCAAUUACCAUCUGUGGUCUGGAACUGCACUCUCUUUUUUAAAAAACAUGUAUACAUUUUAGGGCUGUAGAUUUAUUUUCCUGGUUUUGUUUUUCAUUGCUGACUUUUGAGCACAGAA: 1.77 ratio
GGAAGUACAAUGAUGGAAAUAGAUGGCGACAAAGGCAAGCAGGGCGGGCCCACCUACUACAUAGACACCAAUGCCCUCCGCGUGCCCAGGGAGAACAUGGAGGCCAUUUCACCUCUAAAG: 0.405 ratio
CUGGCCUGGCCCUCCCCAGGGGCCUCCUUUCGUAUAGUCACUGCUUCUGCUACGGAUACUUUCAGCUGCAACUCCCUACUGGGUGGGGCACCUAUCUCAGGCAGAAGGUUUUGGUACCCU: 0.157 ratio

Further values, each from its own experiment — starting sequence: viral docking peptide; TSVRRALFTGGSD
TSVRRWLFTGGSD [A6W]
normalised enrichment score (CCND3, cyclin fold, Cln2 fusion (human); yeast growth competition, sequencing; yeast; weak parent motif; reference: not given, higher = stronger binding): -0.256

A few entries again (sample 3):
AUAAAGGCUAUGUUGAGUGGUCCAGGUCAGUUUGCUGAGAACGAAACCAAUGAGGUCAAUUUUAGAGAGAUCCCCUCACAUGUGCUAUCAAAAGUGUGCAUGUAUUUUACCUACAAGGUC: 0.105 ratio
UUCCCAACCUCCCGCCUGCUUUUUGAACCGCUUUUUGGAAAGUUUUUGGCGUUUCUUUUCCUUCCCCAUACAAAGUGAUUACAGUUUCCCCCGCAAGGGUCUAUCGAAGGGCUUGACGGA: 0.465 ratio
